# Measured values gathered from unrelated publications.
# Each numbered part is a random draw from the data of one study; scales do not carry over between parts. Substitutions count along the parent as printed.

# Block 1
# Target: Histone acetyltransferase KAT6A, winged helix 1, GST fusion (KAT6A, Homo sapiens, UniProt Q92794, residues 1-85)
# Method: protein binding microarray
# Molecule type: double-stranded DNA, one strand shown
# Medium: in vitro
# Tested at: not given
# Notes: 8-mer, flanks averaged, mean of 2 arrays, mostly near background
# Reference: not given
# Reading: higher = stronger binding
# Residues (chain): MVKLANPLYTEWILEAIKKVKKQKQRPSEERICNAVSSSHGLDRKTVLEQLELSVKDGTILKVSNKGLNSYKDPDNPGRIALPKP
Sequence,E-score
GGATTACC,-0.0101
CGTGCCCA,0.135
ATGGTGAA,-0.145
CGGATGAC,0.249
TTGCCCAA,-0.0982
ATGCCTTA,-0.178
GGGTCAGA,0.0408
GCAGAGAC,-0.0657
AGATCTGG,-0.158
GCAGCGCA,0.266
CGTCCCTA,0.128
CAGATGGG,-0.092
GCTACCTA,-0.162
CGATCTAC,-0.0733
AGATGTTA,-0.175
CCGTTTGA,0.194
GCTGATGA,0.0185
AGCTGATC,-0.0845
ACGACTGA,-0.174
CTTATTGA,-0.26

# Block 2
# Target: CCNE1, cyclin fold, Cln2 fusion (human)
# Method: yeast growth competition, sequencing
# Medium: yeast
# Notes: weak parent motif
# Reference: not given
# Reading: higher = stronger binding
# Starting sequence: KIF20B docking peptide (human); KRAKRKLYTSEIS
Substitution,normalised enrichment score
ARAKRKLYTSEIS [K1A],0.683
KRAARKLYTSEIS [K4A],0.371
KRAKRKLATSEIS [Y8A],-0.352
KRAKRALYTSEIS [K6A],0.241
KRAKRKAYTSEIS [L7A],0.228
KRAKRKLYTSAIS [E11A],0.357

# Block 3
# Target: Interferon regulatory factor 7, full length, phosphomimetic (IRF7, Homo sapiens, UniProt Q92985, residues 1-503, S471D/S472D/S475D/S476D/S477D/S483D/S484D/S487D)
# Method: protein-binding microarray
# Molecule type: double-stranded DNA, one strand shown
# Medium: in vitro
# Tested at: 2200 nM top
# Notes: 60-bp whole probe
# With: salmon DNA 0.4 mg/ml
# Reference: random background probes
# Reading: higher = stronger binding
# Shared flanks, not repeated: GCCTAGCAC … GTCTTGATTCGCTTGACGCTGCTG
# Residues (chain): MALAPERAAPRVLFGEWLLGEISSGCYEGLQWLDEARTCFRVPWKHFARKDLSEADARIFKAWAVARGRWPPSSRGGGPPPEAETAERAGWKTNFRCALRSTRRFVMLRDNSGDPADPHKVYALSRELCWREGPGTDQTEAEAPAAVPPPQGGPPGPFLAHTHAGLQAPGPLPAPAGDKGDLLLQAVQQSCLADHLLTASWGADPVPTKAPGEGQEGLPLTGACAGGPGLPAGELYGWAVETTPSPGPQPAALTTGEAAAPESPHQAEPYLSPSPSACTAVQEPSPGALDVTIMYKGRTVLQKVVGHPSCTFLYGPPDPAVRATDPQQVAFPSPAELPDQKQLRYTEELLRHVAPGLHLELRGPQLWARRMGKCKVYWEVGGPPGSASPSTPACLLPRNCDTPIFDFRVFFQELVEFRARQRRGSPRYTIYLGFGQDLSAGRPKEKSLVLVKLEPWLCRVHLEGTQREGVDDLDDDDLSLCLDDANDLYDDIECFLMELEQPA
Sequence,fitted relative affinity [z-score]
TCAAGAGTAGTTTTTCAAACTGTGCTA,-0.9
GTCGGTTTCGGGTATCGGGACGTGCTA,7.32
TCACCTTGGCCTCTAGGACTGTGCTAG,0.0808
TGACGGCTCACTCCGTTGGAGTGCTAG,-0.597
GACGAACTGAGTTTCGTGACGTGCTAG,1.46
TTAGCACTGGGGTATCGATTAGTGCTA,-0.168
AACATACTGATTTCCACTTTGTGCTAG,2.19
TTAGGAATGGGGACTGGGTTAGTGCTA,-0.567
TCATTTGTTTCACTTCCTACTGTGCTA,4.41
GGATGAGCAAGGGGGCCTCGGTGCTAG,-0.243
GCCGATTTCGGGACTGGAGACGTGCTA,1.94
TCAGATTTCTTCCCTGTGACTGTGCTA,1.37
CACGGTTTCGACACTGGGGACGTGCTA,3.01
TCATTTTTTTTAATTGAACTGTGCTAG,0.519
TTAGGACTGGACACGGGGTTAGTGCTA,-0.776
GACGGTCTCGGTTTCTGGACGTGCTAG,2.31
ATAGGTCTCCTTATCCTTTAGTGCTAG,0.927
TCATCTTTACTGCTCCAACTGTGCTAG,1.66
GACGAACTGGGGACTCGAGACGTGCTA,-0.0909
TCATGTTTGGTCCTGATACTGTGCTAG,1.75
TTATGTATCGACACTGGGTTAGTGCTA,0.623
TTAGGTATCGGATTTCGGTTAGTGCTA,2.45
CTCTGCTTCTGTATGGGCATGTGCTAG,0.848
TTAGGTTTCCTGTCCCTTTAGTGCTAG,2.15
TTAGGACAGGGGTTTCGGTTAGTGCTA,2.68

# Block 4
# Target: RNA binding protein fox-1 homolog 2, RRM domain, GST-SBP tag (RBFOX2, Homo sapiens, UniProt O43251-10, residues 100-194)
# Method: RNA Bind-n-Seq
# Molecule type: RNA
# Medium: in vitro
# Tested at: 365 nM
# Notes: natural RNA segment, single round, ends assumed
# Reference: no-protein control
# Reading: higher = stronger binding
# Shared flanks, not repeated: GGGAGUUCUACAGUCCGACGAUC … UGGAAUUCUCGGGUGCCAA
# Residues (chain): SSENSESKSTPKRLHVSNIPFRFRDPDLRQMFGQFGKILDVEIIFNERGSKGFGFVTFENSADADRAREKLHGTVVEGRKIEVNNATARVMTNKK
Sequence,RBNS enrichment (R)
CCAGACCAGUCUUAUAGUAAAUAAGCAGAGUUCUGUGUCAGCUCAUGGCUGAUCUCUCCUCAAAGAGGUGAGUAGAAAAGAGAUUCUUGUUUAAAAGAGUCUAGCAAGAA,0.336
UUAGGAAGGGUUUUAUACAGACAGGUUAAAGGGCUCUGGUUUCAAGUCCCUUGUCCAUGCUGCACUGGGGCAGGCCGGUUGUUUGUGGUUUGUCCUACCAGCCACAGCUC,1.05
UACAUUUGUUAAGGUAUGCGCAUAAUUACAGCAACUGUUUUUAUAGUUUGUAUCCCAGAGUAUACUGUGUUGAAAUAAGAAGAUGCAUAGCAGCUGAAUGCAUGCAUGAC,0.496
AGGUCCUGCAGGUCGAUGUGUGAGUCAGGAAACACUGCAGGGAAAUAGACCUUUCCUUCCGUACCUGAGAGCUGCAGGUACCAAGGGAUCUACCGUGCAGGGACUGGGCA,1.36
CUGACUCAGUUUCUCUUGUUGGGUGGGGGCCUUGUGCCACAACCUGCAUGGGGUGCUAGGGUUUAAACCAAGUGGUCACGAAGGAUUCUUAUCUCAGGGCUCUGCCUGGC,0.264
AUCACUGAGUUUCUGAUUUAGUAGUUUGUUCUGUAGAUCCCCAAAGCUGUGCUGUGUAUUGGUGGUUUUAGAAAGACUCAGCUCAUGAGCUGUGUUAAACCUUAACAUGA,0.538
CAAAGGUCCUAAGAGGAGACAGCUGUGAAGUUGGGCGUGCUCUGUGGUACCAGCUGUGACUUUUCUAUUUCUCCUAGUUUUAGGUUGUUCAUGAAACUAGAAAUGUCAUC,0.433
UUAAAGAAAAGGUUUUUAGGUAUUUUUGGUAUUAUAUAGUCUCUAAGGCCAGAAGGGGCUUAUAAUGACUUCUCUUCUAGAAUUGUAAUACUAAAAAACUACUCGAGUAA,0.648
AGACGGGAAGAUCAGGAGUUCAAGGUCUUAGCUACAUAGUAAGUUUGAAGCCAGCCUGGCUACUUGAGACUCUGUCUCACAAAAGCAAAUAAACAAAGGAUUAUGCUUAA,0.426
UUUUGAACCUCGCUGGACCUUGUAUGUGUGCACAUUUGCCAGAGAUUGAACAUAAUCCUCUUGGGACUUCACGUUCUCAUUAUUUGUAUGUCUCCGGGGUCACGCAGAGC,0.26
AGGCUGAGGCAGGAGAAUCACUUGAAUCCAGGAGGCGAAGGUUGCAGUGAGCUGAGAUUGUGCUGCUGCACUCCAGCCUGGGAGACAGAGCGAGACUCUGUCUUAAAAAA,1
CAGUAUGGUUCUCGGAGUCCAAAGGGUUUUAAGCCAGGGCACAACCAGAAAAGUGGCUCUCUUUGGUAGGGAGAGGGGCUCCAAUAUUUCGUUCUCUCCCCAUGGGGCAC,0.362

# Block 5
# Target: NFIL3, bZIP domain (human)
# Method: DHFR protein complementation
# Medium: yeast
# Notes: single substitutions, most at no-binding floor
# Reference: wild-type JUN-FOS pair
# Reading: higher = stronger binding
# Starting sequence: JUN, bZIP domain (human); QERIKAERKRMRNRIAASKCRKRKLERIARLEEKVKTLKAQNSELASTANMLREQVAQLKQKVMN; partner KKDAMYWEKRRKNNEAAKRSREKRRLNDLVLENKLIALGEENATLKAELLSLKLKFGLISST
Substitution,binding fitness
Q55M,-1.51 natural log
K36M,-1.28 natural log
A29F,-1.29 natural log
S47K,-1.45 natural log
E33V,-1.41 natural log
K34C,-1.4 natural log
L38H,-1.53 natural log
E32M,-1.09 natural log
R53M,-1.47 natural log
L52Y,-1.35 natural log
V35K,-1.33 natural log
R53G,-1.53 natural log
N42F,-1.53 natural log
A57L,-1.33 natural log
T48S,-1.4 natural log
L59W,-1.55 natural log
M51I,-1.66 natural log
A40D,-1.26 natural log
Q41S,-1.51 natural log

# Block 6
# Target: Fragile X messenger ribonucleoprotein 1, C-terminal low-complexity region (Fmr1, Mus musculus, UniProt P35922)
# Method: RNA Bind-n-Seq
# Molecule type: RNA
# Medium: in vitro
# Tested at: 200 nM
# Notes: whole 134-nt RNA, ends assumed
# With: 150 mM LiCl
# Reference: input library
# Reading: higher = stronger binding
# Each molecule: 7-deaza-guanosine replaces G
# Shared flanks, not repeated: GGGAGUUCUACAGUCCGACGAUC … UGGAAUUCUCGGGUGUCAAGG
Sequence,log2 enrichment
UGGCACUGGUGGCAUGCGGGGAGGAAGAGGUGGCCUCAUGGAUCGUGGUGGUCCCGGUGGAAUGUUCAGAGGUGGCCGUGGUGGAGACAG,-0.347
UCCUGUGCUACACAUCGUAUGUACCGAAUCGGAAAAAAAGGGAAAAAAAGGAAAAAAAGGAAAGUAUUAUGUUACGCCGUUCGGAUCUGC,-0.41
AAGUCCUGUGCUACACAUCGUAUGUACCGAAUCGGGUUUGGGUGGGUUUUUUUGGGAAAGUAUUAUGUUACGCCGUUCGGAUCUGCACUU,-1.42
UGGGAGGUGGAUUUUGUUUAUUUUUUUAGCUCAUUUCCAGGGGUGGGAAUUUUUUUUUAAUAUGUGUCAUGAAUAAAGUUGUUUGUGAAA,-0.0883
UCCUGUGCUACACAUCGUAUGUACCGAAUCGGGGUUUGGGGAAAGGGGAAAAAAAGGGGAAAGUAUUAUGUUACGCCGUUCGGAUCUGCA,-0.542
CAAGUCCUGUGCUACACAUCGUAUGUACCGAAUCGGGAAAGGGGAAAGGAAAGGGAAAGUAUUAUGUUACGCCGUUCGGAUCUGCACUUC,-0.561
GUCCUGUGCUACACAUCGUAUGUACCGAAUCGGGAAAAAGGAAAAAGGGGAAAAAGGGAAAGUAUUAUGUUACGCCGUUCGGAUCUGCAC,0.0869
CAAGUCCUGUGCUACACAUCGUAUGUACCGAAUCGGUGGUUUUUGGAAAAAAAGGAAAGUAUUAUGUUACGCCGUUCGGAUCUGCACUUC,-0.976
CAAGUCCUGUGCUACACAUCGUAUGUACCGAAUCGGGGUUUGGUUUGGGUUUGGGGAAAGUAUUAUGUUACGCCGUUCGGAUCUGCACUU,-1.81
UCAAGUCCUGUGCUACACAUCGUAUGUACCGAAUCGGGAGGGAAAGGGUUUGGGAAAGUAUUAUGUUACGCCGUUCGGAUCUGCACUUCC,-1.45
CCUGUGCUACACAUCGUAUGUACCGAAUCGGGGUUUUUUGGGGUUUUUUGGGUUUUUUGGGAAAGUAUUAUGUUACGCCGUUCGGAUCUG,-0.228

# Some of these lines once more (block 1):
Sequence,E-score
CGTCCCTA,0.128
CAGATGGG,-0.092
GCTACCTA,-0.162
CGATCTAC,-0.0733
AGATGTTA,-0.175
CCGTTTGA,0.194
GCTGATGA,0.0185
AGCTGATC,-0.0845
ACGACTGA,-0.174
